# Measurements of several laboratories.
# Numbered parts are unrelated; each lists some results of a single study.
# Sequence of UniProt P11388 (whole entry, looked up): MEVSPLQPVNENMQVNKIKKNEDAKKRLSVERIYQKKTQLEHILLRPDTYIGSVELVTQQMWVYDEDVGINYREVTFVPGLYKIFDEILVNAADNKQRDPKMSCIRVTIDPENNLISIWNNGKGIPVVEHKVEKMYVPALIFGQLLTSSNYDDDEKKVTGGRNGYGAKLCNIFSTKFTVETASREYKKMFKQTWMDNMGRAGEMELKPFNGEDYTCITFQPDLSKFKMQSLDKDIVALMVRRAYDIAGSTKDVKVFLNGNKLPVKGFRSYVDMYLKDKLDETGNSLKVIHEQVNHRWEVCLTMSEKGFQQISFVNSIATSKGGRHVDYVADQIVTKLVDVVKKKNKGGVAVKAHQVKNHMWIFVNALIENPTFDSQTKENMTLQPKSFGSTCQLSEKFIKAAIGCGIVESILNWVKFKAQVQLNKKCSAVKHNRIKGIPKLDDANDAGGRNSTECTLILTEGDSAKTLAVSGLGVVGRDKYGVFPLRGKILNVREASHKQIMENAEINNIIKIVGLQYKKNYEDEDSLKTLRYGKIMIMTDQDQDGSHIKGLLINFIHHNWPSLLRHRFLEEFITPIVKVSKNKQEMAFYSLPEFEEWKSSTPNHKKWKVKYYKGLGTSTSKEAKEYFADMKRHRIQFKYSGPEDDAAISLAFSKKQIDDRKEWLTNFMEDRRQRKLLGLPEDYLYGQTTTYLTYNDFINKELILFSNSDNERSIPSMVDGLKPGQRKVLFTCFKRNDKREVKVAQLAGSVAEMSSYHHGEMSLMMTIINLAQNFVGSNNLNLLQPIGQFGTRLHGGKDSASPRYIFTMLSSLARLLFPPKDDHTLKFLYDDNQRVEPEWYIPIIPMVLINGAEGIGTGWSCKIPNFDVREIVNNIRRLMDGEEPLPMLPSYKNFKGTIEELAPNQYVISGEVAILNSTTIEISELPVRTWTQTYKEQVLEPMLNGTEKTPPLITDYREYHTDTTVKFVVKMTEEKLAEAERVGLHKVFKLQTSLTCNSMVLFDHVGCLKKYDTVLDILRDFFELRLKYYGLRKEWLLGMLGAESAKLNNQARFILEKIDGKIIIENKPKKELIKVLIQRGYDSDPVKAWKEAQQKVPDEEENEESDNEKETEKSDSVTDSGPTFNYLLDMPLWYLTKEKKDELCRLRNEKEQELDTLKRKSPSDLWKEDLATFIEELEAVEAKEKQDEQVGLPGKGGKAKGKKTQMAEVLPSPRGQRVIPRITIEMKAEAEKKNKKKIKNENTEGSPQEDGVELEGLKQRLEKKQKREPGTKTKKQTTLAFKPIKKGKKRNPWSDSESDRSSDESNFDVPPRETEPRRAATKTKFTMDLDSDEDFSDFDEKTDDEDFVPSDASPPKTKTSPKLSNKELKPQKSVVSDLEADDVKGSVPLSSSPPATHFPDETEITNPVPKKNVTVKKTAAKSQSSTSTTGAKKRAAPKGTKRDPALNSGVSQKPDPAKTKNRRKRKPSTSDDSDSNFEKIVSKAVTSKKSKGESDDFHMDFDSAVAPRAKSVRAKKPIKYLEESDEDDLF

# Sample 1 — host: healthy volunteers; setting: single ascending dose; relative to: placebo
# SMILES: Fc1ccccc1Cc1nc(-c2nc(C(F)(F)F)n[nH]2)cn2ccnc12
conditions,choice reaction time
50 mg,-25 ms
10 mg,-26.6 ms
30 mg,-19.3 ms

# Single results of other studies
Compound,tested on,assay,system,conditions,how to read,endpoint,result
COC(=O)Nc1c(N)nc(-c2nn(Cc3ccccc3F)c3ncc(F)cc23)nc1N,,,"human, male, fasting, plasma","15 mg single dose, alone, geometric mean",,AUC,8120 ng·h/mL
COc1cc([C@@H]2c3cc4c(cc3[C@@H](O[C@@H]3O[C@@H]5CO[C@@H](C)O[C@H]5[C@H](O)[C@H]3O)[C@H]3COC(=O)[C@H]23)OCO4)cc(OC)c1O,"DNA topoisomerase 2-alpha (TOP2A, Homo sapiens, UniProt P11388)","enzyme activity, inhibitor",,125 µM,,inhibition,100%
N#CCC1CCN(c2nc(Nc3ccc(N4CCC(O)CC4)cc3)c3c(=O)[nH]ncc3n2)CC1,,"vs placebo, Olink multiplex","human, serum","20 mg, day 29, unit not given",relative to: placebo,GIF level difference,1.11
